Measurements of several laboratories.
Lines come from different studies, so protocols differ. “And” joins repeats or separate records; there may be more than shown. ± gives the spread as reported.

Molecule	target or system	test	test system	conditions	how to read	measurement	value
Cc1sc2c(c1C)C(c1ccc(Cl)cc1)=N[C@@H](CC(=O)OC(C)(C)C)c1nnc(C)n1-2	–	LC-MS	Ringer's solution	50 ng/mL, time not given, glass vessel, plastic vial	–	recovery vs nominal	14.4% and 7.79%
CNC(C)Cc1ccc2c(c1)OCO2 (racemic)	–	visual analog scale, measured: Confident	human	oral, 0.75 mg/kg, mean over session, unit not given	reference: pre-dose baseline	mood rating	1.3
O=C(NCCS)c1cccc(C(=O)NCCS)c1	–	–	rat Sprague-Dawley male	intravenous, 1 mg/kg, 3 h	–	plasma concentration	100 ng/mL
CC[C@H](C)[C@H](NC(=O)[C@H](CC(C)C)NC(=O)[C@H](Cc1c[nH]c2ccccc12)NC(=O)[C@H](CCC(N)=O)NC(=O)[C@@H](NC(=O)[C@H](Cc1ccccc1)NC(=O)[C@H](C)NC(=O)[C@H](CCCCNC(=O)COCCOCCNC(=O)COCCOCCNC(=O)CC[C@H](NC(=O)CCCCCCCCCCCCCCCCCCC(=O)O)C(=O)O)NC(=O)[C@H](CCC(N)=O)NC(=O)[C@H](C)NC(=O)[C@@H](NC(=O)[C@H](CCCCN)NC(=O)[C@H](CC(=O)O)NC(=O)[C@H](CC(C)C)NC(=O)C(C)(C)NC(=O)[C@@H](NC(=O)[C@H](CO)NC(=O)[C@H](Cc1ccc(O)cc1)NC(=O)[C@H](CC(=O)O)NC(=O)[C@H](CO)NC(=O)[C@@H](NC(=O)[C@H](Cc1ccccc1)NC(=O)[C@@H](NC(=O)CNC(=O)[C@H](CCC(=O)O)NC(=O)C(C)(C)NC(=O)[C@@H](N)Cc1ccc(O)cc1)[C@@H](C)O)[C@@H](C)O)[C@@H](C)CC)[C@@H](C)CC)C(C)C)C(=O)N[C@@H](C)C(=O)NCC(=O)NCC(=O)N1CCC[C@H]1C(=O)N[C@@H](CO)C(=O)N[C@@H](CO)C(=O)NCC(=O)N[C@@H](C)C(=O)N1CCC[C@H]1C(=O)N1CCC[C@H]1C(=O)N1CCC[C@H]1C(=O)N[C@@H](CO)C(N)=O	–	–	human	subcutaneous, 5 mg, 29 h	–	blood glucose at hypoglycaemia	53 mg/dL
Cc1ccc(-c2ncc(Cl)cc2-c2ccc(S(C)(=O)=O)cc2)cn1	–	–	hip replacement patients	oral, 120 mg, 1.5 h	reference: CSF over plasma	tissue/plasma ratio	0.097
CCCCCCCC[N+](C)(C)CCCCCCCC	–	substrate depletion	human liver microsomes	0.5 µM, 0 to 3 h, 37 °C, added: NADPH	–	intrinsic clearance	1.05 mL/h/mg protein
O=C(OC(C(F)(F)F)C(F)(F)F)N1CCC(CCn2cnc3ccccc32)CC1	–	–	PBS	20 h, pH 7.4, 20 °C	–	solubility	6 µg/mL
CC1N=C(c2ccccc2F)c2cc(Nc3cccc(C#N)c3)ccc2NC1=O (stereo not shown)	–	shake flask	PBS	24 h, pH 7.4	–	solubility	1.35 µM
N#Cc1ccc(-c2ccc(-c3ccco3)o2)cc1F	Salmonella enterica	sodium azide mutagenicity	TA1535	20 µM, 48 h, added: sodium azide 2 µg/plate after pre-exposure	–	inhibition	82 ± 8.49%
CC(C)c1ccc2c(c1)CC[C@H]1[C@](C)(CN)CCC[C@]21C	1205Lu	cell growth or viability, MTS	–	48 h	–	IC50	1630 nM
COC(=O)N[C@H](C(=O)N1CCC[C@H]1C(=O)Nc1ccc([C@@H]2CC[C@@H](c3ccc(NC(=O)[C@@H]4CCCN4C(=O)[C@@H](NC(=O)OC)C(C)C)cc3)N2c2ccc(C(C)(C)C)cc2)cc1)C(C)C	–	–	healthy human volunteers, plasma	oral, dose not given, warfarin interaction study	reference: given without warfarin	AUC(0-24)	1210 ng·h/mL
CSCC[C@@H]1NC(=O)[C@H](CC(=O)O)NC(=O)CNC(=O)[C@H](CCCNC(=N)N)NC(=O)[C@H](C)NC(=O)[C@H](CCC(=O)O)NC(=O)[C@H](CCCNC(=N)N)NC(=O)[C@@H]2CSSC[C@@H]3NC(=O)[C@H](CO)NC(=O)[C@H]([C@@H](C)O)NC(=O)[C@@H]4CCCN4C(=O)[C@H](C)NC(=O)[C@H](Cc4c[nH]c5ccccc45)NC(=O)[C@H](CC(=O)O)NC(=O)CNC(=O)[C@H](CCCNC(=N)N)NC(=O)CNC(=O)[C@H](CCC(N)=O)NC(=O)[C@@H]4CCCN4C(=O)[C@@H](NC(=O)CNC(=O)C(C)F)CSSC[C@H](NC(=O)CNC(=O)[C@H](C)NC(=O)[C@H](CC(C)C)NC(=O)[C@H](CSSC[C@@H](C(=O)NCC(N)=O)NC(=O)[C@H]([C@@H](C)O)NC(=O)[C@H](CCCNC(=N)N)NC(=O)[C@@H]4CCCN4C1=O)NC(=O)[C@H](CC(=O)O)NC(=O)[C@H](CO)NC(=O)[C@H](CC(=O)O)NC(=O)[C@H](CCC(N)=O)NC(=O)[C@H](CO)NC3=O)C(=O)N[C@@H](C(C)C)C(=O)N2 (stereo partly shown) [fluorine-18 labelled]	–	–	nude mice U-87 MG xenograft, kidneys	intravenous, 1 h	–	tissue uptake	3.02 ± 0.33 %ID/g
N=C(N)c1ccc(-c2ccc(-c3ccco3)o2)cc1F	Salmonella enterica	sodium azide mutagenicity	TA1535	20 µM, 48 h, added: sodium azide 2 µg/plate after pre-exposure	–	inhibition	90%
CN[C@@](C)(C[18F])C(=O)O	–	–	SCID mouse SK-OV-3 xenograft, pancreas	120 min, post injection	–	tissue uptake	14 ± 3.6 %ID/g
CC(=O)CO	–	–	human skin ex vivo	500 µL infinite dose, 5% m/V, propylene glycol/water vehicle	–	steady-state flux	84.6 ± 79 µg/cm²/h
N=C(N)NCCC[C@@H]1NC(=O)[C@H](CCCCNC(=O)CNC(=O)CNC(=O)CNC(=O)CC[C@H](NC(=O)CCOCCOCCOCCOCCNC(=O)c2ccc(NN)nc2)C(=O)NCC(=O)NCC(=O)NCC(=O)NCCCC[C@@H]2NC(=O)[C@@H](Cc3ccccc3)NC(=O)[C@H](CC(=O)O)NC(=O)CNC(=O)[C@H](CCCNC(=N)N)NC2=O)NC(=O)[C@@H](Cc2ccccc2)NC(=O)[C@H](CC(=O)O)NC(=O)CNC1=O [technetium-99m labelled]	–	γ-counting	female athymic nude mice, U-87 MG xenograft, kidneys	intravenous, 2 h	–	tissue uptake	6.64 ± 0.41 %ID/g
COc1ccc(-c2cc(=O)c3c(OC)c(OC)c(OC)cc3o2)cc1	–	–	C57BL/6 mouse, male, liver	oral, 1% w/w in diet, 6 weeks, orange peel extract diet	reference: content in orange peel	tissue to peel content ratio	0.035%
Oc1cccc2ccccc12	–	fish short-term reproduction	Oryzias latipes, male, water, flow-through	80.0 µg/L, end of exposure	–	body weight	645 ± 53 mg
C[C@H]1CNCCc2ccc(Cl)cc21	–	–	male Sprague-Dawley rat, plasma	subcutaneous, 1 mg/kg, single dose	–	CL/F	266 mL/min/kg
CCCCCOc1ccc(-c2ccc(-c3ccc(C(=O)N[C@H]4C[C@@H](O)[C@@H](O)NC(=O)[C@@H]5[C@@H](O)[C@@H](C)CN5C(=O)[C@H]([C@@H](C)O)NC(=O)[C@H]([C@H](O)[C@@H](O)c5ccc(O)cc5)NC(=O)[C@@H]5C[C@@H](O)CN5C(=O)[C@H]([C@@H](C)O)NC4=O)cc3)cc2)cc1	–	noncompartmental	human neonates not on ECMO, complete sampling, plasma	intravenous, 1.5 mg/kg/day maintenance, doses 3-5, 1 neonate excluded	–	median AUC at steady state	85500 ng·h/mL
N[C@@H](CC(=O)N1CCc2c(nc(C(F)(F)F)nc2C(F)(F)F)C1)CN1CC(F)(F)CCC1=O	–	–	human, plasma	oral, dose not given, 14 day washout, carryover, one subject	reference: Cmax	pre-dose concentration	< 5%
Oc1ccc2ccc3c4ccccc4cc4ccc1c2c43	–	UPLC-AMS	human, plasma	oral, 50 ng of [14C]-BaP	–	AUC	8.5 ± 6.07 fg BaP equivalents·h/mL
H-HGLASTLTRWAHYNALIRAFGGG-NH2 (C-amide)	–	–	rat, brain homogenate	intravenous, 40 µg/100 g, 3.5 h, added: succinate + rotenone	–	basal respiration	no effect
CCCCCOc1ccc(-c2cc(-c3ccc(C(=O)N[C@H]4C[C@@H](O)[C@@H](O)NC(=O)[C@@H]5[C@@H](O)[C@@H](C)CN5C(=O)[C@H]([C@H](O)CC(N)=O)NC(=O)[C@H]([C@H](O)[C@@H](O)c5ccc(O)c(OS(=O)(=O)O)c5)NC(=O)[C@@H]5C[C@@H](O)CN5C(=O)[C@H]([C@@H](C)O)NC4=O)cc3)no2)cc1	–	–	human paediatric patients 2 to 5 years, plasma	intravenous, 4.5 mg/kg once daily, day 7, median	–	weight-normalised steady-state clearance	0.305 mL/min/kg
O=c1[nH]c(Cc2ccccn2)nc2c1cnn2C1CCOCC1	–	–	healthy men, extensive metabolizers, plasma	oral, 10 mg single dose, tablet, median	–	Tmax	0.5 h
CCc1cc(O)ccc1-c1ccc2c(-c3nc4c([nH]3)CN(C(C)C)[C@H](C(=O)N3CC(N(C)C)C3)C4)n[nH]c2c1	–	–	human, plasma	inhalation, 1 mg, single dose, geometric mean	–	t1/2	18.4 h
[123I]c1cncc(OC[C@@H]2CCN2)c1	–	SPECT	human, low plasma nicotine, cortex	intravenous, dose not given	reference: plasma	tissue/plasma ratio	20.9
CS(=O)(=O)CCCn1c(Cn2c(=O)n(CC(F)(F)F)c3ccncc32)cc2cc(Cl)ccc21	–	–	RSV-infected infants	concentration not given, high dose cohorts	–	patients with low MCH	0%

Excerpt of the above:
Molecule	target or system	test	test system	conditions	how to read	measurement	value
CNC(C)Cc1ccc2c(c1)OCO2 (racemic)	–	visual analog scale, measured: Confident	human	oral, 0.75 mg/kg, mean over session, unit not given	reference: pre-dose baseline	mood rating	1.3
O=C(NCCS)c1cccc(C(=O)NCCS)c1	–	–	rat Sprague-Dawley male	intravenous, 1 mg/kg, 3 h	–	plasma concentration	100 ng/mL
CC[C@H](C)[C@H](NC(=O)[C@H](CC(C)C)NC(=O)[C@H](Cc1c[nH]c2ccccc12)NC(=O)[C@H](CCC(N)=O)NC(=O)[C@@H](NC(=O)[C@H](Cc1ccccc1)NC(=O)[C@H](C)NC(=O)[C@H](CCCCNC(=O)COCCOCCNC(=O)COCCOCCNC(=O)CC[C@H](NC(=O)CCCCCCCCCCCCCCCCCCC(=O)O)C(=O)O)NC(=O)[C@H](CCC(N)=O)NC(=O)[C@H](C)NC(=O)[C@@H](NC(=O)[C@H](CCCCN)NC(=O)[C@H](CC(=O)O)NC(=O)[C@H](CC(C)C)NC(=O)C(C)(C)NC(=O)[C@@H](NC(=O)[C@H](CO)NC(=O)[C@H](Cc1ccc(O)cc1)NC(=O)[C@H](CC(=O)O)NC(=O)[C@H](CO)NC(=O)[C@@H](NC(=O)[C@H](Cc1ccccc1)NC(=O)[C@@H](NC(=O)CNC(=O)[C@H](CCC(=O)O)NC(=O)C(C)(C)NC(=O)[C@@H](N)Cc1ccc(O)cc1)[C@@H](C)O)[C@@H](C)O)[C@@H](C)CC)[C@@H](C)CC)C(C)C)C(=O)N[C@@H](C)C(=O)NCC(=O)NCC(=O)N1CCC[C@H]1C(=O)N[C@@H](CO)C(=O)N[C@@H](CO)C(=O)NCC(=O)N[C@@H](C)C(=O)N1CCC[C@H]1C(=O)N1CCC[C@H]1C(=O)N1CCC[C@H]1C(=O)N[C@@H](CO)C(N)=O	–	–	human	subcutaneous, 5 mg, 29 h	–	blood glucose at hypoglycaemia	53 mg/dL
Cc1ccc(-c2ncc(Cl)cc2-c2ccc(S(C)(=O)=O)cc2)cn1	–	–	hip replacement patients	oral, 120 mg, 1.5 h	reference: CSF over plasma	tissue/plasma ratio	0.097
CCCCCCCC[N+](C)(C)CCCCCCCC	–	substrate depletion	human liver microsomes	0.5 µM, 0 to 3 h, 37 °C, added: NADPH	–	intrinsic clearance	1.05 mL/h/mg protein
